Results collected from several papers.
A part holds a random share of what one study measured.

Series 1
Target: Histone acetyltransferase KAT6A, winged helix 1, GST fusion (KAT6A, Homo sapiens, UniProt Q92794, residues 1-85)
Method: protein binding microarray
Molecule type: double-stranded DNA, one strand shown
Sample: in vitro
Tested at: not given
Notes: 8-mer, flanks averaged, mean of 2 arrays, mostly near background
Reference: not given
Reading: higher = stronger binding
Construct (chain): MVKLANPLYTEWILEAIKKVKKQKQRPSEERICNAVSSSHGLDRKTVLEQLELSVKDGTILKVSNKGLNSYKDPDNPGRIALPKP
Oligonucleotide	E-score
CACAGTTC	-0.036
AATCTCCT	-0.161
CAGTGACA	-0.201
CACCAAGC	0.0103
CCAACTCA	-0.251
CAGGACTC	-0.147
GCTTGAAA	-0.0856

Series 2
Target: Interferon regulatory factor 3, full length, phosphomimetic (IRF3, Homo sapiens, UniProt Q14653, residues 1-427, S386D/S396D/S398D/S402D/T404D/S405D)
Method: protein-binding microarray
Molecule type: double-stranded DNA, one strand shown
Sample: in vitro
Tested at: 2540 nM top
Notes: 60-bp whole probe
Together with: salmon DNA 0.4 mg/ml
Reference: random background probes
Reading: higher = stronger binding
Target sequence (chain): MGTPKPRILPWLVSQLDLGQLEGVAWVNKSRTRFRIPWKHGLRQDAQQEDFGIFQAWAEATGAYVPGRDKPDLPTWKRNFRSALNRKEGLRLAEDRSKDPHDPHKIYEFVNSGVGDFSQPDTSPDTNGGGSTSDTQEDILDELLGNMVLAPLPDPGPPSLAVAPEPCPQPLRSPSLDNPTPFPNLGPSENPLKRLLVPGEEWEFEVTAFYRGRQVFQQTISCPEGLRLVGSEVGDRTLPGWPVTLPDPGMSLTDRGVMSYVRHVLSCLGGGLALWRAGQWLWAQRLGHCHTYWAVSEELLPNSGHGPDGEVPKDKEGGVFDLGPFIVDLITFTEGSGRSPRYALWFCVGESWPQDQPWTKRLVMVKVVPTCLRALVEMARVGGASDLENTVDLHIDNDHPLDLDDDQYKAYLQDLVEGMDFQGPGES
Oligonucleotide	fitted relative affinity [z-score]
GCCTAGCACGACGATATCCTTATCCTGACGTGCTAGGTCTTGATTCGCTTGACGCTGCTG	2.4
GCCTAGCACTTAGATATCGGGACTGGATTAGTGCTAGTCTTGATTCGCTTGACGCTGCTG	-0.0138
GCCTAGCACGACGGACTGAACTTTCGGGACGTGCTAGTCTTGATTCGCTTGACGCTGCTG	0.43

Series 3
Target: TAR DNA-binding protein 43, full length, His tag (TARDBP, Homo sapiens, UniProt Q13148, residues 1-414)
Method: RNA Bind-n-Seq
Molecule type: RNA
Sample: in vitro
Tested at: 20 nM
Notes: 6-mer, flanks averaged, single round
Together with: 150 mM LiCl
Reference: input library
Reading: higher = stronger binding
Oligonucleotide	6-mer enrichment (R)
UCGCGA	0.872
CGGCGU	1
CCACCU	0.963

Further values, each from its own experiment
Substance	target	test	system	setting	how to read	measurement	value
PhoQ, residues 284 288 289 292 302 303 SSTLLI	PhoP, residues 12 14 15 18 19 NQFFI (Escherichia coli, UniProt P23836)	Sort-seq, item: YFP reporter	E. coli	PhoQ-PhoP variant library, together with: 10 µM Mg2+	reference: high Mg2+ state, higher = stronger signaling	fold induction	14.4

Repeated from above (further values, each from its own experiment):
Substance	target	test	system	setting	how to read	measurement	value
PhoQ, residues 284 288 289 292 302 303 SSTLLI	PhoP, residues 12 14 15 18 19 NQFFI (Escherichia coli, UniProt P23836)	Sort-seq, item: YFP reporter	E. coli	PhoQ-PhoP variant library, together with: 10 µM Mg2+	reference: high Mg2+ state, higher = stronger signaling	fold induction	14.4
